Measurements of several laboratories.
Protocols differ between the studies behind these lines. ± gives the spread as reported.
Histone chaperone ASF1A: Histone chaperone ASF1A (Homo sapiens, UniProt Q9Y294)
Complement C3 C3b fragment: Complement C3, C3b fragment (Homo sapiens, UniProt P01024)
lecA: PA-I galactophilic lectin (lecA, Pseudomonas aeruginosa, UniProt Q05097)

SMILES | target | assay | system | conditions | how to read | endpoint | result
CC[C@H](C)[C@H](NC(=O)[C@H](CCCNC(=N)N)NC(=O)NC[C@H](CCC(N)=O)NC(=O)NC[C@H](CCc1ccccc1)NC(=O)NC[C@H](CCCNC(=N)N)NC(=O)NC[C@H](Cc1ccc2ccccc2c1)NC(=O)[C@H](CCCCN)NC(=O)[C@H](CCC(=O)O)NC(C)=O)C(=O)N[C@@H](C)C(N)=O | Histone chaperone ASF1A | isothermal titration calorimetry | – | concentration not given, pH 7.5, 20 °C | – | binding enthalpy | -1.7 ± 0.2 kcal/mol
C[C@]12CC[C@H]3[C@@H](CCC4=CC(=O)CC[C@@]43C)[C@@H]1CC[C@@H]2C(=O)CO | CYP11B2 (Homo sapiens, UniProt P19099) | binding, spectral titration | – | CYP11B2 1 µM, added: adrenodoxin 10-fold | – | maximal absorbance change | 0.093
CCOC(=O)c1cnc(CNCCc2c[nH]c3cccc(C)c23)s1 | HTR2B (Homo sapiens, UniProt P41595) | β-arrestin recruitment, agonist | – | – | – | Emax | 93.7%
C=C1C(=O)O[C@@H]2[C@H]3C(CO)=CC(=O)C3=C(C)C[C@H](OC(=O)Cc3ccc(O)cc3)[C@@H]12 | MAL12 (Saccharomyces cerevisiae S288c, UniProt P53341) | fluorescence quenching | – | 298 K | – | binding free energy | -5.2 kcal/mol
CC[C@H](C)[C@H](NC(C)=O)C(=O)N[C@H]1CSSC[C@@H](C(=O)N[C@@H](CC(C)C)C(N)=O)NC(=O)[C@H](CCCNC(=N)N)NC(=O)[C@H](Cc2c[nH]cn2)NC(=O)[C@H](C)NC(=O)CN(C)C(=O)[C@H](Cc2c[nH]c3ccccc23)NC(=O)[C@H](CC(=O)O)NC(=O)[C@H](CCC(N)=O)NC(=O)[C@H](Cc2cn(C)c3ccccc23)NC(=O)[C@H](C(C)C)NC1=O | Complement C3 C3b fragment | SPR | – | 25 °C | relative to: [Trp(Me)4]-Ac-compstatin | relative dissociation rate constant | 1.9
CCc1cc(C)n2nc(-c3ccc(OCC[18F])cc3)c(CC(=O)N(CC)CC)c2n1 | Tspo (Rattus norvegicus, UniProt P16257) | PET | rat, C6 glioma, tumour | 60 min | – | tumour uptake, non-displaced tracer | ~0.2 %ID/cc
Cc1ccc(OCC(=O)N[C@@H](Cc2cn(CCNC(=O)c3ccc(S[C@@H]4O[C@H](CO)[C@H](O)[C@H](O)[C@H]4O)cc3)nn2)C(=O)NCCO)cc1 | lecA | binding, isothermal titration calorimetry | – | 25 °C | – | −TΔS | 3.73 ± 0.143 kcal/mol
CNc1ccccc1C(=O)O[C@H]1C[C@H](n2cnc3c(N)ncnc32)O[C@@H]1COP(=O)(O)OP(=O)(O)O | Unconventional myosin-Va (Gallus gallus, UniProt Q02440, D297C/G292C/I296C/S293C/V295G) | FRET | compound complex | 25 °C, added: 2 mM MgCl2 | – | donor-acceptor distance | 20 Å
COc1cc(C2CC(=O)Nc3nc(N)[nH]c(=O)c32)ccc1O (stereo not shown) | uncharacterized protein (Leishmania donovani, UniProt A0A3Q8IA09) | Tyr fluorescence thermal shift | – | 100 µM | relative to: enzyme alone | Tm shift | ~15 °C
O=C1C=CC(=O)N1c1ccccc1 | P2X purinoceptor 2 (P2rx2, Rattus norvegicus, UniProt P49653, V249C) | covalent modifier, patch clamp | – | 0.5 mM, 2 min | – | ATP-evoked current | no effect
OC[C@H]1O[C@@H](Oc2ccc(OCc3cn([C@H]4[C@H](O)[C@@H](O)[C@H](c5cn([C@H]6[C@H](O)[C@@H](O)[C@H](n7cc(COc8ccc(O[C@@H]9O[C@H](CO)[C@H](O)[C@H](O)[C@H]9O)cc8)nn7)O[C@@H]6CO)nn5)O[C@@H]4CO)nn3)cc2)[C@H](O)[C@@H](O)[C@H]1O | lecA | isothermal titration calorimetry | – | 25 °C | – | ΔG | -9.6 ± 0.1 kcal/mol
O=c1c(-c2cnn(-c3ccc(Cl)cc3)c2)c(C(F)(F)F)oc2c(O)c(O)ccc12 | Cullin-4A, in CRL4-CRBN complex (CUL4A, Homo sapiens, UniProt Q13619) | CK1α ubiquitination by CRL4-CRBN, inhibitor | – | – | – | effective concentration range | ~10 µM
CC1(C)CCN(Cc2ccc(C(=O)NC[C@]3(O)CCCN(c4cc(NCc5ccccc5)ncn4)C3)c(O)c2)CC1 | PDGFRA (Homo sapiens, UniProt P16234) | kinase activity, radiometric | – | 10 µM, added: 10 µM ATP | – | remaining activity | 88%
Fc1ccc(Nc2nc(NC3CCCCC3)c3ccccc3n2)cc1F | Beta-2 adrenergic receptor, with Gs (ADRB2, Homo sapiens, UniProt P07550) | – | reconstituted receptor in bicelles | 10 µM, added: isoprenaline 1 µM | – | Gs activation | no effect
CC[C@H](C)[C@H](NC(=O)[C@H](CCCNC(=N)N)NC(=O)NC[C@H](CCC(N)=O)NC(=O)NC[C@H](CC(C)C)NC(=O)NC[C@H](CCCNC(=N)N)NC(=O)NC[C@H](Cc1c[nH]c2ccccc12)NC(=O)[C@H](CCCCN)NC(=O)[C@H](CCC(=O)O)NC(C)=O)C(=O)N[C@@H](C)C(N)=O | Histone chaperone ASF1A | isothermal titration calorimetry | – | pH 7.5, 20 °C | – | -TΔS | -2.7 ± 0.7 kcal/mol
NC[C@@H]1O[C@H](O[C@H]2[C@@H](O)[C@H](O[C@@H]3[C@@H](O)[C@H](N)C[C@H](N)[C@H]3O[C@H]3O[C@H](CN)[C@@H](O)[C@H](O)[C@H]3N)O[C@@H]2CO)[C@H](N)[C@@H](O)[C@@H]1O | poly(dA)·2poly(dT) triplex | ITC | – | concentration not given, pH 6.8, 20 °C, KCl 150 mM | – | binding enthalpy | -7.5 ± 0.2 kcal/mol

SMILES | target | assay | system | conditions | how to read | endpoint | result
COC(=O)C1=Cc2ccccc2S1(=O)=O | E3 ubiquitin-protein ligase RNF5, with Derlin-1 (Homo sapiens, UniProt Q99942) | item: FLAG-Derlin1 | HEK-293T | concentration not given, 2 h | – | Derlin1 co-immunoprecipitation | increased
O=C(COCCCCc1ccccc1)N[C@@H](Cc1cn(CCNC(=O)c2ccc(S[C@@H]3O[C@H](CO)[C@H](O)[C@H](O)[C@H]3O)cc2)nn1)C(=O)NCCO | lecA | binding, isothermal titration calorimetry | – | 25 °C | – | −TΔS | 3.97 ± 0.239 kcal/mol
O=C1Nc2ccc(Br)cc2/C1=N/N=C/c1cccc(OCc2ccccc2)c1 | MAOA (Homo sapiens, UniProt P21397) | enzyme activity, inhibitor | – | 10 µM | – | remaining activity | 81.5%
C[C@]12C[C@H](c3ccc(-c4ccc(C(=O)O)cc4)cc3)C3=C4CCC(=O)C=C4CC[C@H]3[C@@H]1CC[C@@]2(O)C(F)(F)C(F)(F)F | Progesterone receptor (Oryctolagus cuniculus, UniProt P06186) | endometrial transformation, McPhail test | rabbit | oral, added: progesterone | – | full efficacy dose | 1 mg/kg
CC(=O)N[C@@H](CO)C(=O)N[C@@H](C)C(=O)N[C@@H](CCCCN)C(=O)N[C@@H](C)C(=O)N[C@@H](C)C(=O)N[C@@H](CC(=O)O)C(=O)N[C@@H](CC(=O)O)C(=O)N1CCC[C@H]1C(=O)N[C@@H](CCC(=O)O)C(=O)N[C@@H](CC(N)=O)C(=O)NCC(=O)N[C@@H](CCC(=O)O)C(=O)N[C@@H](CCCNC(=N)N)C(=O)N[C@@H](CCC(=O)O)C(=O)N[C@@H](CO)C(=O)N[C@@H](Cc1c[nH]cn1)C(=O)N[C@H](C(=O)N1CCC[C@H]1C(=O)N[C@H](C(=O)N[C@@H](CO)C(N)=O)C(C)C)[C@@H](C)O | Kelch-like ECH-associated protein 1, Kelch domain (KEAP1, Homo sapiens, UniProt Q14145) | isothermal titration calorimetry | Kelch domain | pH 7, 298.15 K | – | ΔG | -8.13 ± 0.04 kcal/mol
CC1CCCN(CCCNC(=O)C2=Cc3sc4c(c3CS2)CCCC4)C1 (stereo not shown) | Catenin beta-1, with BCL9 (CTNNB1, Homo sapiens, UniProt P35222) | BCL9 co-immunoprecipitation, inhibitor, co-immunoprecipitation | COLO 320 and HCT-116 | 16 h | – | IC50 | 1000 nM
C=C1CCN2C(=O)COc3cccc(c3)C(CCc3ccc(OC)c(OC)c3)OC(=O)C3CCCCN3C(=O)C(=O)C(C)(C)COC(=O)C(CO)NC(=O)C2C1 (stereo not shown) | FKBP1A/MAPRE1 (Homo sapiens, UniProt P62942+Q15691) | FKBP12-MAPRE1 proximity, TR-FRET | – | – | relative to: DMSO | Emax | 255%
CC[C@H](C)[C@H](NC(C)=O)C(=O)N[C@H]1CSSC[C@@H](C(=O)N[C@H](C(N)=O)[C@@H](C)O)NC(=O)[C@H](CCCNC(=N)N)NC(=O)[C@H](Cc2c[nH]cn2)NC(=O)[C@H](C)NC(=O)CNC(=O)[C@H](Cc2c[nH]c3ccccc23)NC(=O)[C@H](CC(=O)O)NC(=O)[C@H](CCC(N)=O)NC(=O)[C@H](Cc2ccc(O)cc2)NC(=O)[C@H](C(C)C)NC1=O | Complement C3 C3b fragment | SPR | – | pH 7.4, 25 °C | – | koff | 0.151 ± 0.022 s⁻¹
O=C1c2ccc(O)cc2OC(c2ccc(O)cc2)C1C1C(=O)c2ccc(O)cc2OC1c1ccc(O)cc1 (stereo not shown) | laccase (Trametes versicolor) | substrate | – | product formation | – | Km | 4.81 ± 0.373 mM
CC[C@H](C)[C@H](NC(=O)[C@H](CCCNC(=N)N)NC(=O)[C@H](CCCCN)NC(=O)[C@@H]1CCCN1C(=O)[C@H](CO)n1cc(CN(CC[C@H](N)C(=O)O)C[C@H]2O[C@@H](n3cnc4c(N)ncnc43)[C@H](O)[C@@H]2O)nn1)C(=O)N[C@@H](C)C(N)=O | N-terminal Xaa-Pro-Lys N-methyltransferase 1 (Homo sapiens, UniProt Q9BV86) | inhibitor, MALDI-MS | – | IC50 and 5 × IC50, 20 min, added: RCC1 peptide | – | methylation | inhibited
CC[C@H](C)[C@H](NC(=O)[C@@H]1CSSC[C@H](NC(=O)[C@@H](NC(C)=O)[C@@H](C)CC)C(=O)N[C@@H](C(C)C)C(=O)N[C@@H](Cc2cn(C)c3ccccc23)C(=O)N[C@@H](CCC(N)=O)C(=O)N[C@@H](CC(=O)O)C(=O)N[C@@H](Cc2c[nH]c3ccccc23)C(=O)NCC(=O)N[C@@H](C)C(=O)N[C@@H](Cc2c[nH]cn2)C(=O)N[C@@H](CCCNC(=N)N)C(=O)N1)C(N)=O | Complement C3 (Homo sapiens, UniProt P01024) | ITC | PBS | concentration not given, pH 7.4, 25 °C | – | ΔH of binding | -16.6 kcal/mol
C#Cc1ccc(O[C@@H]2O[C@H](CO)[C@H](O)[C@H](O)[C@H]2O)cc1 | lecA | isothermal titration calorimetry | – | 25 °C | – | ΔG | -6.9 ± 0.1 kcal/mol
COC(=O)[C@@]1(C)C=C(C(=O)Nc2cccc(C(=O)Nc3ccc(Nc4nccc(-c5cccnc5)n4)c(C)c3)c2)C(=O)CC1 | MAPK8 (Homo sapiens, UniProt P45983) | binding, SPR | – | 15, 40, 70 nM, parallel kinetic model | – | k3 | 0.0245 s⁻¹
Cn1ccc(-c2cc(Cl)c(Cl)c3[nH]c4c(c23)CN(C(=O)CO)CC4)n1 | CGAS (Homo sapiens, UniProt Q8N884) | surface plasmon resonance | – | concentration not given, added: dsDNA | – | binding | no binding
CN(C)c1ccc(/C=C2\Oc3cc(O)ccc3C2=O)cc1 | ERO1-like protein beta (ERO1B, Homo sapiens, UniProt Q86YB8) | CETSA | PC-9 | 100 µM | – | shift of aggregation temperature | no effect

Excerpt of the above:
SMILES | target | assay | system | conditions | how to read | endpoint | result
Cn1ccc(-c2cc(Cl)c(Cl)c3[nH]c4c(c23)CN(C(=O)CO)CC4)n1 | CGAS (Homo sapiens, UniProt Q8N884) | surface plasmon resonance | – | concentration not given, added: dsDNA | – | binding | no binding
O=c1c(-c2cnn(-c3ccc(Cl)cc3)c2)c(C(F)(F)F)oc2c(O)c(O)ccc12 | Cullin-4A, in CRL4-CRBN complex (CUL4A, Homo sapiens, UniProt Q13619) | CK1α ubiquitination by CRL4-CRBN, inhibitor | – | – | – | effective concentration range | ~10 µM
